Measured values collected from several papers.
Every numbered part comes from another study and shows a few of its results, in no order. Several values in a cell are separate wells, animals, samples, runs or records.
Sequence of UniProt P42336 (whole entry, unmodified, looked up): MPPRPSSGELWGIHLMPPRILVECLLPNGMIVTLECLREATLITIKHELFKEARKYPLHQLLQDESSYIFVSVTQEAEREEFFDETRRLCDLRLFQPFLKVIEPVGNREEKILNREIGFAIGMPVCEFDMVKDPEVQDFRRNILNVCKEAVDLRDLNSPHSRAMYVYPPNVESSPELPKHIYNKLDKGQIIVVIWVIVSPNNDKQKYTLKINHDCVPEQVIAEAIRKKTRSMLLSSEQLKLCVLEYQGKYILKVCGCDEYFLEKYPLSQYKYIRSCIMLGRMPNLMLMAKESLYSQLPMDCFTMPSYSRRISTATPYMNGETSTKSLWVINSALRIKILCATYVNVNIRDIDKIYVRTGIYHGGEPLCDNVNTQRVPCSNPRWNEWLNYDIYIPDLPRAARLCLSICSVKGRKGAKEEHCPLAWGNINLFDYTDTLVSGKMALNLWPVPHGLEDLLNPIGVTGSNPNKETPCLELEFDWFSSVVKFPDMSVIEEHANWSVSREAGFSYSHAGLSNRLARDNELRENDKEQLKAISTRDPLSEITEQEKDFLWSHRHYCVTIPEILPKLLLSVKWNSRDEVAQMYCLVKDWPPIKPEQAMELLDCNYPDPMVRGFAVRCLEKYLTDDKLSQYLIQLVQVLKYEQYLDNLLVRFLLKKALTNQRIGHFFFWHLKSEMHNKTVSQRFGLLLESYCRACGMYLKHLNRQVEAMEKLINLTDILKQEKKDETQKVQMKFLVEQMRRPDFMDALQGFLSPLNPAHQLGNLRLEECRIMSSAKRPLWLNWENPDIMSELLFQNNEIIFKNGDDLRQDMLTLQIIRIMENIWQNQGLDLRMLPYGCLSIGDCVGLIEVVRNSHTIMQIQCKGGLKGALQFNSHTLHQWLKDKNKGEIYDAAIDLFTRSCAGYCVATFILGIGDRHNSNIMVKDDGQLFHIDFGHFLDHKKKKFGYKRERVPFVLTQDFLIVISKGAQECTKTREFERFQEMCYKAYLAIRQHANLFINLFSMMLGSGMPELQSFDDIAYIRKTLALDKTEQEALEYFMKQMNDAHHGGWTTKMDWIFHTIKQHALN
Sequence of UniProt O15197 (whole entry, looked up): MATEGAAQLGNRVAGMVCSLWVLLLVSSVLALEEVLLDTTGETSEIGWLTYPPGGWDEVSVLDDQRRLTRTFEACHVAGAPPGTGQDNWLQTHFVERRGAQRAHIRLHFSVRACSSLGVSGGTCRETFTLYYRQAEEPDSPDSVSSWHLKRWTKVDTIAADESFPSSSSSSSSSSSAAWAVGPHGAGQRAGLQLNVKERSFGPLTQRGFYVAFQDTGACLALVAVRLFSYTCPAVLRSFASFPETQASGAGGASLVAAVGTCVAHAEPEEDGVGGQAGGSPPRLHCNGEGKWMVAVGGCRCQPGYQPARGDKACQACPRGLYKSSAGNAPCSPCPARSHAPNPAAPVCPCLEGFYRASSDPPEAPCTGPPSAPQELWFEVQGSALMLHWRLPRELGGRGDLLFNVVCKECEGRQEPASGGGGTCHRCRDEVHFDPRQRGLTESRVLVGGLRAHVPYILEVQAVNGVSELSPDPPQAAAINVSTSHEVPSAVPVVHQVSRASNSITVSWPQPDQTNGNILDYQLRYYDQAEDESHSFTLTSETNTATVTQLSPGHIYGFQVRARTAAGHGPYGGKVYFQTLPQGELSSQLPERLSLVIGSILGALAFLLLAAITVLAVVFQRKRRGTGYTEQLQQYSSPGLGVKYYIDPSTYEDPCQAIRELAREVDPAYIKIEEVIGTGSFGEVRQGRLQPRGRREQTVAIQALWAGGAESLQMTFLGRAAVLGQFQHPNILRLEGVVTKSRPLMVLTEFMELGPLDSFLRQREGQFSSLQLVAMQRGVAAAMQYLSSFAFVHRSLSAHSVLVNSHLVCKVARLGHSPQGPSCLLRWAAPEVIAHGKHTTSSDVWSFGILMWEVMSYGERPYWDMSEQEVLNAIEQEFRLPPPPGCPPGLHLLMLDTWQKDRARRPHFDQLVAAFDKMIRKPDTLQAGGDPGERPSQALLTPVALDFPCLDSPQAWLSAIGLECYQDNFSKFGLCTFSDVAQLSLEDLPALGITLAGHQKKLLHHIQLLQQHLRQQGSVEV
Sequence of UniProt Q13546 (whole entry, looked up): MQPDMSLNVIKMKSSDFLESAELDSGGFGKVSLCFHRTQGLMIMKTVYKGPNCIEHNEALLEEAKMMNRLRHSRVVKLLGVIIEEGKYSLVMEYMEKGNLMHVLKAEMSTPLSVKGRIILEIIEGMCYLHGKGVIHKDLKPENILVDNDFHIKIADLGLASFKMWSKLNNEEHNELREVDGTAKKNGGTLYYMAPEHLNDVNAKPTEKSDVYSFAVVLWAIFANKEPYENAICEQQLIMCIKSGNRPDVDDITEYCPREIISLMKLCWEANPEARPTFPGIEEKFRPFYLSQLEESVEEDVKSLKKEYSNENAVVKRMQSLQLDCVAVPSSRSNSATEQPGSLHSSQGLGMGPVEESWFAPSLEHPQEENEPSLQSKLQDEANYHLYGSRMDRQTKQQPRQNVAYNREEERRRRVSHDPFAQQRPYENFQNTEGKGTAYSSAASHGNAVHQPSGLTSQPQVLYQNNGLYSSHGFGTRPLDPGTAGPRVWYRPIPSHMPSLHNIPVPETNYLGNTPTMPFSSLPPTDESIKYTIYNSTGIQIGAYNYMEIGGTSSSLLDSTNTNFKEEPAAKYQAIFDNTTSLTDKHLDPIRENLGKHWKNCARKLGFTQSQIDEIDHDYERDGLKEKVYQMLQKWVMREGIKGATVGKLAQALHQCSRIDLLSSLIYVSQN
Sequence of UniProt Q13188 (whole entry, looked up): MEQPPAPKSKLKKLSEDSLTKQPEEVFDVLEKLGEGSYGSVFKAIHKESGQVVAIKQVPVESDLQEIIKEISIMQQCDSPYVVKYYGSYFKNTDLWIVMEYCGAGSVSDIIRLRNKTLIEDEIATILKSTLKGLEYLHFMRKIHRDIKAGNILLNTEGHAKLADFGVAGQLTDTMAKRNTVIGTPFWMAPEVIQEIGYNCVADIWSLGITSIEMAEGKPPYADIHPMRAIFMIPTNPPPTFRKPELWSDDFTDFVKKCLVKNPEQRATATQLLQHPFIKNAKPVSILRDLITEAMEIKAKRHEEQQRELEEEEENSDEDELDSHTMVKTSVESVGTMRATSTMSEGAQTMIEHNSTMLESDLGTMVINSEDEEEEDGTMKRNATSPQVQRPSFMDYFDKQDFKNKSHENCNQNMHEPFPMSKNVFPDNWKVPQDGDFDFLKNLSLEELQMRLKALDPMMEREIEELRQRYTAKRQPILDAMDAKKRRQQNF
Sequence of UniProt Q13882 (whole entry, looked up): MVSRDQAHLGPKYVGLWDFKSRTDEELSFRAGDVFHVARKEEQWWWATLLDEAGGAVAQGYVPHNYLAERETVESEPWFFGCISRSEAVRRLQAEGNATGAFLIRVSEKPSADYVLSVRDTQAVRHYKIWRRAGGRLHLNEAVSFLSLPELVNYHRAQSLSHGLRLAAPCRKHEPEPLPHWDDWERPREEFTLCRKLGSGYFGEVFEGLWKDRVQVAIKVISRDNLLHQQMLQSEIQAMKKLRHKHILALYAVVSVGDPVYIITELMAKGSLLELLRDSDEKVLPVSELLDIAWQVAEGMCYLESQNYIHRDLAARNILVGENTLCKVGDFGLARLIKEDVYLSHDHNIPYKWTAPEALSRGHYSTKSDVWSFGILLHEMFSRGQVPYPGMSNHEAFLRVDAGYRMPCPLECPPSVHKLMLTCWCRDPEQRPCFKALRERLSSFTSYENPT

Set 1
Compound: CNC(=O)c1ccc(-c2cnn3ccc(C(=O)N(C)c4ccc(Cl)c(C(=O)OC)c4)cc23)cc1
Organism: Cryptosporidium parvum
Technique: time-kill
Strain: nanoluciferase-expressing
Relative to: DMSO
tested at | time | luminescence
3 nM | 72 h | 89.6% and 104%
9 nM | 24 h | 32.5% and 39.4%
27 nM | 8 h | 84.7% and 101%
27 nM | 0 h | 97.4% and 91.2% and 99.4% and 90.3% and 103% and 90.1% and 98% and 91.4%
3 nM | 0 h | 97.4% and 90.3% and 98% and 103% and 99.4% and 91.4% and 90.1% and 91.2%
9 nM | 48 h | 15.4% and 15.7%
81 nM | 4 h | 118% and 116%
27 nM | 48 h | 9.63% and 11.5%

Set 2
SMILES: CCn1cnc2c(Nc3cccc(Cl)c3)nc(N[C@H]3CCCC[C@H]3N)nc21
Observed: enzyme activity
Mode: inhibitor
Tested at: 0.5 µM
Relative to: control
target | remaining activity [%]
Aurora kinase B (AURKB, Homo sapiens, UniProt Q96GD4) | 98.8
SRSF protein kinase 2 (SRPK2, Homo sapiens, UniProt P78362) | 80.7
Serine/threonine-protein kinase B-raf (BRAF, Homo sapiens, UniProt P15056) | 93
Serine/threonine-protein kinase pim-3 (PIM3, Homo sapiens, UniProt Q86V86) | 34.7
High affinity nerve growth factor receptor (NTRK1, Homo sapiens, UniProt P04629) | 92.9
Tyrosine-protein kinase ZAP-70 (ZAP70, Homo sapiens, UniProt P43403) | 106
Serine/threonine-protein kinase haspin (HASPIN, Homo sapiens, UniProt Q8TF76) | 90.4
Focal adhesion kinase 1 (PTK2, Homo sapiens, UniProt Q05397) | 83.1
Inhibitor of nuclear factor kappa-B kinase subunit alpha (CHUK, Homo sapiens, UniProt O15111) | 91.7
Mitogen-activated protein kinase kinase kinase 7 (MAP3K7, Homo sapiens, UniProt O43318) | 98.9
Testis-specific serine/threonine-protein kinase 1 (TSSK1B, Homo sapiens, UniProt Q9BXA7) | 87.4
Protein-tyrosine kinase 6 (PTK6, Homo sapiens, UniProt Q13882) | 82.1
Serine/threonine-protein kinase 3 (STK3, Homo sapiens, UniProt Q13188) | 83.9
Dual specificity protein kinase TTK (TTK, Homo sapiens, UniProt P33981) | 99.7

Set 3
SMILES: Cn1cncc1[C@](O)(COc1ccc(C#N)cc1-c1ccc(OC(F)(F)F)cc1)c1ccc(C#N)cc1
Observed: cell-free assay
Technique: competition with immobilised ligand
Tested at: 1 µM
target | remaining binding
STE20-like serine/threonine-protein kinase (SLK, Homo sapiens, UniProt Q9H2G2) | 90%
Receptor-type tyrosine-protein kinase FLT3 (FLT3, Homo sapiens, UniProt P36888, F691L/ITD) | 98%
Receptor-interacting serine/threonine-protein kinase 1 (RIPK1, Homo sapiens, UniProt Q13546) | 79%
Phosphatidylinositol 4,5-bisphosphate 3-kinase catalytic subunit alpha isoform (PIK3CA, Homo sapiens, UniProt P42336, H1047L) | 100%
Epidermal growth factor receptor (EGFR, Homo sapiens, UniProt P00533, G719C) | 82%
ALK tyrosine kinase receptor (ALK, Homo sapiens, UniProt Q9UM73) | 100%
Tyrosine-protein kinase Fgr (FGR, Homo sapiens, UniProt P09769) | 100%
Ephrin type-B receptor 6 (EPHB6, Homo sapiens, UniProt O15197) | 95%
Serine/threonine-protein kinase DCLK1 (DCLK1, Homo sapiens, UniProt O15075) | 94%
Platelet-derived growth factor receptor alpha (PDGFRA, Homo sapiens, UniProt P16234) | 100%
Receptor tyrosine-protein kinase erbB-3 (ERBB3, Homo sapiens, UniProt P21860) | 87%
Phosphatidylinositol 4,5-bisphosphate 3-kinase catalytic subunit alpha isoform (PIK3CA, Homo sapiens, UniProt P42336, E545K) | 97%
Mast/stem cell growth factor receptor Kit (KIT, Homo sapiens, UniProt P10721, L576P) | 100%
Mitogen-activated protein kinase 1 (MAPK1, Homo sapiens, UniProt P28482) | 90%
Muscle, skeletal receptor tyrosine-protein kinase (MUSK, Homo sapiens, UniProt O15146) | 93%

Other studies, line by line
Structure (SMILES) | cell line | assay | setting | scale | quantity | value
Cc1sc2c(c1C)C(c1ccc(Cl)cc1)=N[C@H](CC(=O)OC(C)(C)C)c1nnc(C)n1-2 | mouse MPNST tumor cells | high-content immunofluorescence imaging, measured: nuclear SOX9 | 10 µM, 12 h, mean of 2 replicates | relative to: DMSO control, higher = more nuclear SOX9 | nuclear SOX9 intensity | 134 % of DMSO
NC(=O)CN1CCCC1=O | A-375 | – | 100 µM, 18 h | – | viability | 87.7%
NCC(CC(=O)O)c1ccc(Cl)cc1 (racemic) | mouse MPNST tumor cells | high-content immunofluorescence imaging, measured: nuclear SOX9 | 10 µM, 12 h, mean of 2 replicates | relative to: DMSO control, higher = more nuclear SOX9 | nuclear SOX9 intensity | 93.6 % of DMSO

Excerpt of the above (set 2):
target | remaining activity [%]
Tyrosine-protein kinase ZAP-70 (ZAP70, Homo sapiens, UniProt P43403) | 106
Serine/threonine-protein kinase haspin (HASPIN, Homo sapiens, UniProt Q8TF76) | 90.4
Focal adhesion kinase 1 (PTK2, Homo sapiens, UniProt Q05397) | 83.1
Inhibitor of nuclear factor kappa-B kinase subunit alpha (CHUK, Homo sapiens, UniProt O15111) | 91.7
Mitogen-activated protein kinase kinase kinase 7 (MAP3K7, Homo sapiens, UniProt O43318) | 98.9
Testis-specific serine/threonine-protein kinase 1 (TSSK1B, Homo sapiens, UniProt Q9BXA7) | 87.4
